Measured values collected from several papers.
Each numbered part is a random draw from the data of one study; scales do not carry over between parts.

Block 1
Target: Sal-like protein 4, full length isoform B (SALL4, Homo sapiens, UniProt Q9UJQ4-2, residues 1-616)
Technique: universal PBM
Form: double-stranded DNA, one strand shown
Medium: in vitro
Concentration: not given
Notes: 8-mer, flanks averaged, mean of replicates
Direction: higher = stronger binding
Quantity: E-score
Target sequence (chain): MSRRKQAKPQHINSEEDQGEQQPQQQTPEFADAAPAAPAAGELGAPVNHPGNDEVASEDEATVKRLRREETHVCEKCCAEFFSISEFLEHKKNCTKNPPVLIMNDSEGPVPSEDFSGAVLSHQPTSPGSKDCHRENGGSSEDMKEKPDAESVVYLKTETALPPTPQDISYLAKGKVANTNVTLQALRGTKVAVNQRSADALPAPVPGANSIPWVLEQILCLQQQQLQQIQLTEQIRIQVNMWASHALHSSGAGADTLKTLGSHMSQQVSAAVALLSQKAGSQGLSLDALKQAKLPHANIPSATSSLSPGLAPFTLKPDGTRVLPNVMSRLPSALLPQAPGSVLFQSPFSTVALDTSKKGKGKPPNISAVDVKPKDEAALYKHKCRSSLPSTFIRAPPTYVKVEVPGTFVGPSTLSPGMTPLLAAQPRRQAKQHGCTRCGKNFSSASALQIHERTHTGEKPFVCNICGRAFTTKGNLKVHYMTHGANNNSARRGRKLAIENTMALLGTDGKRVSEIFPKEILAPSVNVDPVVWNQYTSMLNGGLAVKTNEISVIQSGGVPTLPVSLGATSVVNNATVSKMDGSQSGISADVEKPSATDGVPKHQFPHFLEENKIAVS
Sequence = ACGGCTCG; result = -0.321
Sequence = TAAGGCTA; result = 0.111
Sequence = AATCGTTC; result = 0.0654
Sequence = AGACTTAT; result = 0.215
Sequence = CGCCGCCA; result = -0.359
Sequence = ACTCCCCC; result = -0.182
Sequence = AATTGCCG; result = -0.00667
Sequence = CGACCTTA; result = 0.0642
Sequence = ATTTCGTA; result = 0.187
Sequence = AGACAGGA; result = 0.153
Sequence = GCAATTTA; result = 0.184
Sequence = GAATCTGC; result = -0.141
Sequence = ACGTAGAG; result = -0.0235
Sequence = CTCCGCGA; result = -0.312
Sequence = CTGTCTGC; result = -0.0565
Sequence = CGAACAGA; result = 0.115
Sequence = GACTACTA; result = 0.139
Sequence = ACTTAGCA; result = -0.0493
Sequence = AAAGGGAG; result = -0.102
Sequence = CTCCTACA; result = 0.0624
Sequence = CCTCCTAG; result = -0.146
Sequence = CAGTATCC; result = 0.0144
Sequence = ACGAACCG; result = -0.156
Sequence = GAGACTGC; result = -0.166

Block 2
Target: Histone acetyltransferase KAT6A, winged helix 1, GST fusion (KAT6A, Homo sapiens, UniProt Q92794, residues 1-85)
Technique: protein binding microarray
Form: double-stranded DNA, one strand shown
Medium: in vitro
Concentration: not given
Notes: 8-mer, flanks averaged, mean of 2 arrays, mostly near background
Reference: not given
Direction: higher = stronger binding
Quantity: E-score
Target sequence (chain): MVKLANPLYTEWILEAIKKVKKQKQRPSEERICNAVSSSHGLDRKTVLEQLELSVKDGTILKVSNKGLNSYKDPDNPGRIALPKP
Sequence = AGATACAA; result = -0.13
Sequence = ATAAATAT; result = -0.0787
Sequence = GGCTCAAC; result = -0.12
Sequence = ATAAATAA; result = -0.041
Sequence = AGCCCGCC; result = 0.36
Sequence = AAGCGCGC; result = 0.44
Sequence = GTAACGAA; result = -0.0715
Sequence = GATCGAGA; result = -0.225
Sequence = GATGATTA; result = 0.0499
Sequence = CCGCCACG; result = 0.346
Sequence = GAGAGACC; result = -0.081
Sequence = AACCGTAA; result = 0.25
Sequence = CTCGAAGC; result = -0.00784
Sequence = ACGACTAG; result = -0.109
Sequence = ACGAGACT; result = -0.186
Sequence = CGGGAAGC; result = 0.325
Sequence = GCCTCCTA; result = -0.0356
Sequence = GCCAACCA; result = 0.0901
Sequence = CGGGACCG; result = 0.408
Sequence = ATCGCAAA; result = 0.103
Sequence = CCCGTCTC; result = 0.303
Sequence = ATTAACGC; result = 0.255
Sequence = ACAGGAGG; result = -0.232
Sequence = ATTCGGCG; result = 0.241
Sequence = ATGACTTC; result = -0.171

Block 3
Target: Interferon regulatory factor 3, full length, phosphomimetic (IRF3, Homo sapiens, UniProt Q14653, residues 1-427, S386D/S396D/S398D/S402D/T404D/S405D)
UniProt Q14653, sequence (whole entry, unmodified, looked up): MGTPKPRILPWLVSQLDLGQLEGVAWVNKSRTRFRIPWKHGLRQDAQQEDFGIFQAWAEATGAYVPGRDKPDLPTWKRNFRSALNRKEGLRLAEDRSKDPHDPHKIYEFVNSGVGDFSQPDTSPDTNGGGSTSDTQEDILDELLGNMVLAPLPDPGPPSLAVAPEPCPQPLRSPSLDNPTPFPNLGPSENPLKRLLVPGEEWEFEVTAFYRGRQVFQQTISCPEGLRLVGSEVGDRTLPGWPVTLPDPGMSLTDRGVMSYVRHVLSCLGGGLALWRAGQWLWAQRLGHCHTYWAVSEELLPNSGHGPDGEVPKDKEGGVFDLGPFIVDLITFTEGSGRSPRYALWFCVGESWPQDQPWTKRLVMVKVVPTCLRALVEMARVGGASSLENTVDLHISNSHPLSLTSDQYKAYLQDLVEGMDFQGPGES
Technique: protein-binding microarray
Form: double-stranded DNA, one strand shown
Medium: in vitro
Concentration: 2540 nM top
Notes: 60-bp whole probe
Together with: salmon DNA 0.4 mg/ml
Reference: random background probes
Direction: higher = stronger binding
Quantity: fitted relative affinity
All sequences stand within: GCCTAGCAC … GTCTTGATTCGCTTGACGCTGCTG
Sequence = TGGAAACTCGTATGTGACCTTGTGCTA; result = -0.258 z-score
Sequence = GACGATATCGGGTATCGCGACGTGCTA; result = 0.0539 z-score
Sequence = GACGACCTGGGGTATCGAGACGTGCTA; result = -0.753 z-score
Sequence = TTAGTACTGAGTATCGATTAGTGCTAG; result = 0.469 z-score
Sequence = TCATTTGTATTTTTGATACTGTGCTAG; result = 1.55 z-score
Sequence = CTATGAAGTCATGTCTTCAGGTGCTAG; result = -0.265 z-score
Sequence = GTAGGACTGCTACTGCTTTAGTGCTAG; result = -0.807 z-score
Sequence = ATGAGCTTCAAACCATAACCGTGCTAG; result = -0.428 z-score
Sequence = TCATTTTCATTGTTTTTCACTGTGCTA; result = 2.09 z-score
Sequence = TCATAATTCTGATTGGAACTGTGCTAG; result = 0.476 z-score
Sequence = TTAGGTCTCCTGTTCCTTTAGTGCTAG; result = 0.952 z-score
Sequence = AACCGCCTCTCCCTTAGACGGTGCTAG; result = -0.0904 z-score
Sequence = GACGGTTTCGCTTCCGGGACGTGCTAG; result = 7.8 z-score
Sequence = GATGGAAACTTAAACTAGAAAGTGCTA; result = 1.02 z-score
Sequence = ATCTTCATGAAGTTTTAATAAGTGCTA; result = 0.221 z-score
Sequence = TTAGATTGCAGTATCGATTAGTGCTAG; result = 1.43 z-score
Sequence = GACGGTTTCGGGACTGGAGACGTGCTA; result = 4.99 z-score
Sequence = TTAAGTATCCTTTTCCTTTAGTGCTAG; result = 9 z-score

Block 4
Target: RNA binding protein fox-1 homolog 2, RRM domain, GST-SBP tag (RBFOX2, Homo sapiens, UniProt O43251-10, residues 100-194)
Technique: RNA Bind-n-Seq
Form: RNA
Medium: in vitro
Concentration: 365 nM
Notes: natural RNA segment, single round, ends assumed
Reference: no-protein control
Direction: higher = stronger binding
Quantity: RBNS enrichment (R)
All sequences stand within: GGGAGUUCUACAGUCCGACGAUC … UGGAAUUCUCGGGUGCCAA
Construct (chain): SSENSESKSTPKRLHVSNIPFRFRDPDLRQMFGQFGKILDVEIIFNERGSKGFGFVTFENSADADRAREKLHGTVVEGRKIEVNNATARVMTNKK
Sequence = UCUGAGGAACCUUGUGUCCAGUUGUUACAAAGUUUAAGCUUUGAACCUAACCUGCAUCCCAUUUCCAGCCUCUUUUCAAGCUGAGAAAAAAAAAAAAAAACACGUUUGAU; result = 0.973
Sequence = GGACUGGACUCGAAGCUAGAACUGGCAGAAGAGUUCUGGCAUCCACAGCGCAAUGCUGCCACCACCCAGUUUCUUCAUCAGAAGACAAGGGAACGAGAAAACUGCUGUUC; result = 0.291
Sequence = UUAAAAAAAUGCCAUAACUAUUAAACACCUUGUUUACAGACAGAUGAAAUAAAUUUAUUCCAACCAAUACUCUAGGCUCCUGUUGUUUAUAUACAUUGUUUAUAUAAACU; result = 0.308
Sequence = AUUGCUCAGGCUGGCUUCGGACUCAGAGAUCUAUCUGCUUGCCUCCAACAUUUGAGAGCAGAGAGUUUGCACCACCACUUCCCGGUUCAAGGUUCUUUUAACUGCUAACU; result = 0.37
Sequence = GGACUUGCAGCACAAAUGUCACUUCUGUCUCCCUUUUCAGUGGUAGCACGGAGGAGGAGGUGCUGCGUUGGAGGGAGGGGAUCCUCCAGGAGCUCUCUGGAGCCCAUCUA; result = 0.604
Sequence = GAAUGGUAACAGAGCCAGCGCUGAAGUCUCCUUUCUUCCUCCCAUCUGGAAGAACAUCAAGAUAUCUUUUUGUGGAUCAAGUUUGAGUACUUGAUCAUUUUUAUAUUACU; result = 0.741
Sequence = CCUAUCCCAUACACGGGGCAGGAGGACGCCACAGACUGGACGCUGAGCGGCCCAGCUCUGGGGGGCACGAGGUCACCUCCGAUGCCACUUACCAGCCUUUCUGAUUCUUU; result = 0.239
Sequence = GGAUUACAGGUGUGAGCCACUGUGCCCAGCGUGAUUUUUUUUUUUUUUUAAAGCAAACUUGUCCUUUGGUUUUGCAGAACAGGCCUGCUCCCUCUCAUCUAGCCCAUCAU; result = 0.641
Sequence = AACCCAGUCAUCCCACUAUGAAUCUGGCAUCUUCUUAUGCUUCUAGUGUUUUGGCCAUACAUCAACCAAGGGGUUUAAUUUAUCCAAUGCUUGACGACAUGUUCAGGAGG; result = 0.281
Sequence = GCAUCUAACCGGAGUGGGAGGGCACAUCAAGCGAUUUCACUCUCUUAAAGAAAAGGUUUUUAGGUAUUUUUGGUAUUAUAUAGUCUCUAAGGCCAGAAGGGGCUUAUAAU; result = 0.682
Sequence = GUGUUCCUCCUCCCUCUAUUACUGUUUCACCAGAGCUGUCUUAGCUCAAAUCUGUUGUGUUUCUGAGUCUAGGGUCUGUACACUUGUUUAUAAUAAAUGCAAUCGUUUGG; result = 0.377
Sequence = AUGUUAUCCACUCUGUUGCUUUUGUCUGGAAAACUCUACAGUGUUUGUGGGAUGUCCCCAAAGGAAAGCUAUGUUCUAAUUUUAUCAUUUCCAUCUGUCUGGUUAUGUCA; result = 1.2

Block 5
Target: Ras GTPase-activating protein-binding protein 1, full length (G3BP1, Homo sapiens, UniProt Q13283)
UniProt Q13283, sequence (whole entry, looked up): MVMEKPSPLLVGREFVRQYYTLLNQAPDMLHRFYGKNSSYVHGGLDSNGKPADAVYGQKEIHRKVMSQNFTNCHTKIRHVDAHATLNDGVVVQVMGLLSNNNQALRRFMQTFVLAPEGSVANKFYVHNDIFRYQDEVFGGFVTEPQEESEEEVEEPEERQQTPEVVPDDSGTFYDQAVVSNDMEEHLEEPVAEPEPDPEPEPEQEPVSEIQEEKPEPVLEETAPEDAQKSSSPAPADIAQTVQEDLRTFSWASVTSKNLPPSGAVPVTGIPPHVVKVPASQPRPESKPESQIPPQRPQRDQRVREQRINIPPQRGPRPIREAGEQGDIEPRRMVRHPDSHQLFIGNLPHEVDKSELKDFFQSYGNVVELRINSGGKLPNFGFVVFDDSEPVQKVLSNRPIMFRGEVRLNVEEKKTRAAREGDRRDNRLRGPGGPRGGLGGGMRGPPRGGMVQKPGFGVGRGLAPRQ
Technique: RNA Bind-n-Seq
Form: RNA
Medium: in vitro
Concentration: 200 nM
Notes: whole 134-nt RNA, ends assumed
Together with: 150 mM KCl
Reference: input library
Direction: higher = stronger binding
Quantity: log2 enrichment
All sequences stand within: GGGAGUUCUACAGUCCGACGAUC … UGGAAUUCUCGGGUGUCAAGG
Sequence = GUCCUGUGCUACACAUCGUAUGUACCGAAUCGGCCCCCGGGCCCCCGGGGCCCCCGGGGAAAGUAUUAUGUUACGCCGUUCGGAUCUGCA; result = -1.03
Sequence = CCUCAAGUCCUGUGCUACACAUCGUAUGUACCGAAUCGGGGUUGGUUGGUUGGAAAGUAUUAUGUUACGCCGUUCGGAUCUGCACUUCCA; result = 0.0688
Sequence = AGUCCUGUGCUACACAUCGUAUGUACCGAAUCGGGGCCCCGGGCCCCGGGCCCCGGGAAAGUAUUAUGUUACGCCGUUCGGAUCUGCACU; result = -0.512
Sequence = CACAGACAACACGCACCCACACAGACACAGAGGGAAGGGGUUGGGAUGGGGACAGGGUGCACAGCAGGGCGGGCUAGGACCCCAGCCCCU; result = 1.99
Sequence = GUCCUGUGCUACACAUCGUAUGUACCGAAUCGGGGAAAGGGGAAAGGGGUUUUUGGGGAAAGUAUUAUGUUACGCCGUUCGGAUCUGCAC; result = 0.483
Sequence = CCUGUGCUACACAUCGUAUGUACCGAAUCGGGGUUUUUUGGGGUUUUUUGGGUUUUUUGGGAAAGUAUUAUGUUACGCCGUUCGGAUCUG; result = -0.403
Sequence = UCAAGUCCUGUGCUACACAUCGUAUGUACCGAAUCGGGAAAGGGUGGGAAAGGGAAAGUAUUAUGUUACGCCGUUCGGAUCUGCACUUCC; result = 1.04
Sequence = CUCAAGUCCUGUGCUACACAUCGUAUGUACCGAAUCGGAAGGGAAGGAAGGGGAAAGUAUUAUGUUACGCCGUUCGGAUCUGCACUUCCA; result = 0.169
Sequence = AGUCCUGUGCUACACAUCGUAUGUACCGAAUCGGAAAAAAAGGAAAAAGGAAAAAGGAAAGUAUUAUGUUACGCCGUUCGGAUCUGCACU; result = -1.35
Sequence = ACCAUGCAGGUGGGCAUCUUUGGGAAGUAGGGCAAGGGGGGGAUAGGGAGGGGGGUAACACUUUGGGAACAGGUGGUCCCAGGUCGUUUC; result = 0.961
Sequence = UCCUGUGCUACACAUCGUAUGUACCGAAUCGGUUUUUUGGGGUUUUUUGGGUUUUUUGGGAAAGUAUUAUGUUACGCCGUUCGGAUCUGC; result = -0.335
Sequence = AGUCCUGUGCUACACAUCGUAUGUACCGAAUCAAACCCCCCCAAACCCAAACCCAAAAAAGUAUUAUGUUACGCCGUUCGGAUCUGCACU; result = -0.389
Sequence = CACAGACAACACGCACCCACACAGACACAGAGGGAAGGGGUUAGGAUGGGGACAGGGUGCACAGCAGGGCGGGGUAGGACCCCAGCCCCU; result = 1.74
Sequence = UAACUUUAGAGGAGGAUCUGAUGGAUAUGGCAGUGGACGUGGAUUUGGGGAUGGCUAUAAUGGGUAUGGGGGAGGACCUGGAGGUGGCAA; result = 0.569
